Measurements pooled from the literature.
Values joined by “and” are separate records of one study, mostly repeats; a detail may differ. ± marks the error that the study gave.
CASP1: Caspase-1 (CASP1, Homo sapiens, UniProt P29466)
HSP90AA1 N-terminal domain: Heat shock protein HSP 90-alpha, N-terminal domain (HSP90AA1, Homo sapiens, UniProt P07900)
Rhomboid protease AarA: Rhomboid protease AarA (Providencia stuartii, UniProt P46116)
T1: ssRNA, hairpin with 1x1 G/G internal loops (Homo sapiens); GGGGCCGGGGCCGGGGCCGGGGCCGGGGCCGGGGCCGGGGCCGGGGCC
T2: G-quadruplex RNA, G-quadruplex (Homo sapiens); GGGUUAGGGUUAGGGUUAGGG

Structure (SMILES)	target	assay	system	setting	how to read	endpoint	result
Fc1ccc(Nc2nc(NC3CCCCC3)c3ccccc3n2)cc1F	ADRB2 (Homo sapiens, UniProt P07550)	β-arrestin2 recruitment, PathHunter and GloSensor	–	–	relative to: GloSensor IC50 over PathHunter IC50	bias factor	> 100 fold
CC(C)(O)c1ccn2c(-c3ccc(F)c(-c4ccc(F)cc4C#N)c3)cnc2c1F	GABRA1 (Homo sapiens, UniProt P14867, D219N)	total protein level, Western blot	HEK-293T stably expressing GABAA receptors	5 µM, single dose, together with: hispidulin 10 µM	–	time to peak increase	12 to 24 h
CC(=O)N[C@@H](CC(C)C)C(=O)N[C@@H](CCC(N)=O)C(=O)N[C@@H](CO)C(=O)N[C@@H](CC(=O)O)C(=O)COC(=O)c1c(C)cccc1C	CASP1	enzyme activity, inhibitor	–	–	–	kinact/KI	359000 M⁻¹ s⁻¹
O=C(N1CCCC1)n1cc(-c2ccc(-c3ccccc3)cc2)nn1	Acot1 (Mus musculus, UniProt O55137)	enzyme activity, inhibitor, competitive ABPP-SILAC	mouse T-cells	concentration not given, 4 h, treated in situ	relative to: DMSO	activity ratio	1.16
CC(C)Oc1cc(Cl)ccc1CNc1cc(-c2ccccc2)nc2ncnn12	GPR3 (Homo sapiens, UniProt P46089, V196W)	cAMP level, cAMP GloSensor	–	10 nM	higher = more cAMP	cAMP luminescence	33000 a.u. and 46900 a.u. and 32900 a.u. and 53600 a.u.
Cc1cc(Cl)cc(-c2ccnc3cc(CN4C(=O)C5C(C4=O)C5(C)C)sc23)c1C[C@@H]1CNCCO1 (some centres unmarked)	USP7 (Homo sapiens, UniProt Q93009, V517F)	isothermal titration calorimetry	–	concentration not given, USP7 V517F	–	binding enthalpy	-19.3 ± 0.87 kcal/mol
CCCCCCCCCCCCC/C=C/C=O	Nuclear pore complex protein Nup155 (Homo sapiens, UniProt O75694)	competitive isoTOP-ABPP, measured: NUP155 cysteine peptide	proteome, soluble, MDA-MB-231	100 µM, together with: iodoacetamide probe	relative to: DMSO over compound-treated, higher = stronger cysteine blockade	isoTOP-ABPP competition ratio	1.2
CN(C)S(=O)(=O)c1ccc(S(=O)(=O)N2CCC(n3c(=O)[nH]c4ccccc43)CC2)cc1	ERCC2 (Homo sapiens, UniProt P18074)	inhibitor	–	concentration not given	relative to: untreated	ATPase activity	101%
CC[C@H](C)[C@H](NC(=O)[C@H](CO)NC(=O)[C@H](CC(N)=O)NC(C)=O)C(=O)N[C@@H](CCCNC(=N)N)C(=O)N[C@@H](CCCCN)C(=O)N[C@@H](Cc1ccccc1)C(=O)N[C@@H](COP(=O)(O)O)C(=O)N[C@H](C(=O)N[C@H](C(=O)N[C@@H](CCC(N)=O)C(=O)N[C@@H](CCCCN)C(=O)N[C@H](C(=O)N1CCC[C@H]1C(=O)NCC(=O)NCC(=O)NCC(=O)NCC(=O)NCC(=O)N[C@@H](CCC(N)=O)C(=O)N[C@@H](C)C(=O)N[C@@H](CCCNC(=N)N)C(=O)N[C@@H](CCCNC(=N)N)C(=O)N[C@@H](CCCNC(=N)N)C(=O)N[C@@H](CCC(N)=O)C(=O)N[C@@H](COP(=O)(O)O)C(=O)N[C@H](C(=O)N[C@@H](CC(C)C)C(=O)N[C@@H](CC(N)=O)C(=O)N[C@@H](CC(C)C)C(=O)N[C@@H](CCSC)C(=O)N[C@H](C(N)=O)[C@@H](C)O)C(C)C)[C@@H](C)O)C(C)C)[C@@H](C)CC	14-3-3 protein beta/alpha (Homo sapiens, UniProt P31946)	binding, ITC	–	37 °C, together with: CFTR R-domain peptide	–	TΔS	-6.1 kcal/mol
O=C(CSc1nc2cc(Cl)c3cccnc3c2o1)c1ccc(O)c(O)c1	HSP90AA1 N-terminal domain	SPR, two-state model	N-terminal domain	–	–	koff	0.00874 ± 0.0083 s⁻¹
CCN(CC)C(CO)c1cccc2c(C)c(C)oc12 (centres unmarked)	LPAR1 (Homo sapiens, UniProt Q92633)	G-protein dissociation, agonist, NanoBiT	HEK-293T	10 pM, wild-type receptor	relative to: baseline luminescence	fold change	1.02 and 0.985 and 0.971 and 0.982 and 0.992 and 0.989
COc1cc(-c2cn(C)c(=O)c3cnccc23)cc(OC)c1CN(C)C	CREBBP (Homo sapiens, UniProt Q92793)	–	–	–	–	ΔTm	1 °C
COc1cc(Nc2nccc(-c3cnn4nc(OC)ccc34)n2)cc(C(F)(F)F)c1	KIT (Homo sapiens, UniProt P10721, T670I/V559D)	binding	–	1 µM	–	remaining binding	85%
COC(=O)c1cc2cc3c(cc2oc1=O)N(CC(=O)NC(Cc1ccc(C)cc1)C(=O)NCC=CS(=O)(=O)c1ccccc1)CCC3 (centres unmarked)	Procathepsin L (CTSL, Homo sapiens, UniProt P07711)	inhibitor	–	together with: Z-Phe-Arg-pNA	–	kinact/Ki	12000 M⁻¹ s⁻¹
Cc1nnc(-c2ccc(CC(=O)NCCOCCOCC(=O)NC(CCN3C4CCC3CC(n3c(C)nnc3C(C)C)C4)c3ccccc3)cc2)nn1 (centres unmarked)	CCR5 (Homo sapiens, UniProt P51681, Y184K)	Ca2+ mobilization, inhibitor	HEK293T	together with: PSC-RANTES	relative to: mutant minus wild type	pIC50 difference	1 . 258
CC(C(=O)Nc1ccccc1OCC1CC1)C(F)(F)F (centres unmarked)	Rhomboid protease AarA	enzyme activity, inhibitor, fluorogenic peptide substrate	–	–	–	IC50	inactive
N#CN1CC[C@H](C(=O)Nc2nc3c(s2)CN(C(=O)Cn2cc(COCCOCCOCCOCCNC(=O)CCCC[C@@H]4SC[C@@H]5NC(=O)N[C@@H]54)nn2)CC3)C1	E3 ubiquitin-protein ligase TRIM33 (Homo sapiens, UniProt Q9UPN9)	probe binding, affinity probe, neutravidin pull-down LC-MS/MS	HEK293T, cell lysate	5 µM, 1 h, mean of three replicates, unit not given	higher = more pulled down	iBAQ abundance	478000
O[C@@H]1Cc2cccc(OCCF)c2C[C@H]1N1CCC(c2ccccc2)CC1	Vesicular acetylcholine transporter (Rattus norvegicus, UniProt Q62666)	–	rat liver (sigma2)	–	relative to: Ki sigma2 over Ki VAChT	selectivity ratio	360
CCOc1ccccc1CC(=O)c1nccs1	Rhomboid protease AarA	enzyme activity, inhibitor, fluorogenic peptide substrate	–	–	–	IC50	inactive

Structure (SMILES)	target	assay	system	setting	how to read	endpoint	result
C#CCCC1(CCNC(=O)CCC)N=N1	T1, ssRNA, hairpin with 1x1 G/G internal loops (Homo sapiens)	covalent, Chem-CLIP pulldown	–	–	–	binding	no binding
CC(=O)N1C[C@H](O)C[C@H]1C(=O)N[C@H](C(=O)N[C@@H](CO)C(=O)N[C@@H](CC(=O)O)C(=O)COC(=O)c1c(C)cccc1C)C(C)C	CASP1	enzyme activity, inhibitor	–	–	–	kinact/KI	36400 M⁻¹ s⁻¹
Nc1ccn([C@@H]2O[C@H](COP(=O)(O)OP(=O)(O)OP(=O)(O)O)[C@@H](O)[C@@H]2O)c(=O)n1	RNA-directed RNA polymerase L (Human respiratory syncytial virus A, UniProt P28887)	nucleotide incorporation, substrate	–	–	–	Vmax	0.8 fraction per time
C#CCCC1(CCC(=O)NCC2CN(CCCCCNC(=O)CN(CCN)C(=O)Cn3cnc4c(=O)[nH]c(N)nc43)CCN(CCCCCNC(=O)CN(CCN)C(=O)Cn3cnc4c(=O)[nH]c(N)nc43)CCN(CCCCCNC(=O)CN(CCN)C(=O)Cn3cnc4c(=O)[nH]c(N)nc43)CCN2CCCCCNC(=O)CN(CCN)C(=O)Cn2cnc3c(=O)[nH]c(N)nc32)N=N1 (centres unmarked)	T2, G-quadruplex RNA, G-quadruplex (Homo sapiens)	FRET melting	–	–	–	change in melting temperature	19.9 °C
CC(=O)N[C@@H](CCC(N)=O)C(=O)N[C@@H](CC(C)C)C(=O)N1CCC[C@H]1C(=O)N[C@@H](CC(=O)O)C(=O)COC(=O)c1c(C)cccc1C	CASP1	enzyme activity, inhibitor	–	–	–	kinact/KI	19000 M⁻¹ s⁻¹
CC(C)C(=O)Nc1ccc(F)c(Cl)c1	Rhomboid protease AarA	enzyme activity, inhibitor, fluorogenic peptide substrate	–	–	–	IC50	inactive
Clc1ccc(OCc2nn3c(-c4ccccn4)nnc3s2)cc1	HSP90AA1 N-terminal domain	SPR, two-state model	N-terminal domain	–	–	koff	0.0139 ± 0.0154 s⁻¹
Cc1ccc(-n2nc(NC(=O)COc3ccc(Cl)cc3Cl)c3cccnc32)cc1Cl	Kir3.1/Kir3.2 (Homo sapiens, UniProt P48051+P48549)	activator, thallium flux	HEK293	concentration not given	–	activity	inactive
O=C(NC[C@@H](Cc1ccc(F)cc1)N1CCC(O)(C(F)(F)F)CC1)C1(c2ccc(Cl)cc2)CCCC1	Trpa1 (Rattus norvegicus, UniProt Q6RI86)	calcium influx, agonist	–	–	–	EC50	inactive
CCc1cc(O)cc2c(/C=N/NC(=N)NCCc3ccc(Cl)cc3)c[nH]c12	RXFP4 (Homo sapiens, UniProt Q8TDU9, V122S)	–	HEK-293T	–	relative to: wild type	Emax	86.5 ± 3.45%
CCCC[C@H](NC(C)=O)C(=O)N[C@@H](CCC(=O)O)C(=O)N[C@@H](CO)C(=O)N[C@@H](CC(=O)O)C(=O)COC(=O)c1c(C)cccc1C	CASP1	enzyme activity, inhibitor	–	–	–	kinact/KI	1.02e+06 M⁻¹ s⁻¹
N=C(N)NCCS(=O)(=O)O	SLC6A6 (Homo sapiens, UniProt P31641, Y138A)	binding, microscale thermophoresis	–	15.6 µM, room temperature, together with: 50 nM labelled protein	higher = more binding	normalised MST signal	-0.0358
CC(C=CC=C(C)C=CC1=C(C)CCCC1(C)C)=CC=O	Rhodopsin (RHO, Homo sapiens, UniProt P08100, E181K)	ER retention, immunostaining co-localization, measured: opsin with calnexin	COS-7 transfected E181K	50.00 µM	–	Pearson correlation coefficient	0.45
CC(=O)N[C@H](C(=O)N[C@@H](CCC(=O)O)C(=O)N[C@@H](CCCCN(C)C)C(=O)N[C@@H](CC(=O)O)C(=O)COC(=O)c1c(C)cccc1C)C(C)C	CASP1	enzyme activity, inhibitor	–	–	–	kinact/KI	12600 M⁻¹ s⁻¹
CCCCCC(O)/C=C/C=O (centres unmarked)	PGK1 (Homo sapiens, UniProt P00558)	acylphosphate-ATP probe SILAC-ABPP	ZAK-transfected HEK293T	100 µM, together with: acylphosphate-ATP probe	relative to: DMSO over compound-treated	probe labelling ratio	0.64
CCCCCCOc1ccc(C(=O)OCCN2CC=CCC2)cc1	CHRM2 (Homo sapiens, UniProt P08172)	–	membranes	100 µM, 15 h, no carbachol	relative to: control	basal binding	0.83 ± 0.06 fold
Nc1nc2c(CNCCCP(=O)(O)O)c[nH]c2c(=O)[nH]1	Uncharacterized protein (Trypanosoma cruzi, UniProt Q4DRC3)	inhibitor, spectrophotometric IMP formation	–	–	relative to: human HGPRT Ki over Uncharacterized protein Ki	selectivity ratio	0.1
C#CCOC(=O)[C@]1(C)C=C(C(=O)OC(C)(C)C)C(=O)CC1	MAPK1 (Homo sapiens, UniProt P28482)	enzyme activity, D-SENSOR	–	0.5487 µM, single replicate	–	normalized kinase activity	0.801 and 0.673 and 0.996
CC(=O)N[C@@H](CCCNC(=N)N)C(=O)NC1CCCCCCC(C(N)=O)NC(=O)[C@H](Cc2c[nH]c3ccccc23)NC(=O)[C@H](CCCNC(=N)N)NC(=O)[C@@H](Cc2ccccc2)NC(=O)[C@H](Cc2c[nH]cn2)NC(=O)[C@@H](C)NC1=O (some centres unmarked)	MC4R (Homo sapiens, UniProt P32245)	cAMP accumulation, agonist, LANCE TR-FRET cAMP	CHO-K1 cells	–	relative to: setmelanotide	fold decrease in potency	~100 fold

Some of these lines once more:
Structure (SMILES)	target	assay	system	setting	how to read	endpoint	result
Fc1ccc(Nc2nc(NC3CCCCC3)c3ccccc3n2)cc1F	ADRB2 (Homo sapiens, UniProt P07550)	β-arrestin2 recruitment, PathHunter and GloSensor	–	–	relative to: GloSensor IC50 over PathHunter IC50	bias factor	> 100 fold
C#CCCC1(CCC(=O)NCC2CN(CCCCCNC(=O)CN(CCN)C(=O)Cn3cnc4c(=O)[nH]c(N)nc43)CCN(CCCCCNC(=O)CN(CCN)C(=O)Cn3cnc4c(=O)[nH]c(N)nc43)CCN(CCCCCNC(=O)CN(CCN)C(=O)Cn3cnc4c(=O)[nH]c(N)nc43)CCN2CCCCCNC(=O)CN(CCN)C(=O)Cn2cnc3c(=O)[nH]c(N)nc32)N=N1 (centres unmarked)	T2, G-quadruplex RNA, G-quadruplex (Homo sapiens)	FRET melting	–	–	–	change in melting temperature	19.9 °C
COc1cc(Nc2nccc(-c3cnn4nc(OC)ccc34)n2)cc(C(F)(F)F)c1	KIT (Homo sapiens, UniProt P10721, T670I/V559D)	binding	–	1 µM	–	remaining binding	85%
CC(C)(O)c1ccn2c(-c3ccc(F)c(-c4ccc(F)cc4C#N)c3)cnc2c1F	GABRA1 (Homo sapiens, UniProt P14867, D219N)	total protein level, Western blot	HEK-293T stably expressing GABAA receptors	5 µM, single dose, together with: hispidulin 10 µM	–	time to peak increase	12 to 24 h
